Published values from different studies.
Each numbered part is a random draw from the data of one study; scales do not carry over between parts. Positions count from the first letter of the parent shown.

Study 1
Target: Ras GTPase-activating protein-binding protein 1, full length (G3BP1, Homo sapiens, UniProt Q13283)
UniProt Q13283, sequence (whole entry, looked up): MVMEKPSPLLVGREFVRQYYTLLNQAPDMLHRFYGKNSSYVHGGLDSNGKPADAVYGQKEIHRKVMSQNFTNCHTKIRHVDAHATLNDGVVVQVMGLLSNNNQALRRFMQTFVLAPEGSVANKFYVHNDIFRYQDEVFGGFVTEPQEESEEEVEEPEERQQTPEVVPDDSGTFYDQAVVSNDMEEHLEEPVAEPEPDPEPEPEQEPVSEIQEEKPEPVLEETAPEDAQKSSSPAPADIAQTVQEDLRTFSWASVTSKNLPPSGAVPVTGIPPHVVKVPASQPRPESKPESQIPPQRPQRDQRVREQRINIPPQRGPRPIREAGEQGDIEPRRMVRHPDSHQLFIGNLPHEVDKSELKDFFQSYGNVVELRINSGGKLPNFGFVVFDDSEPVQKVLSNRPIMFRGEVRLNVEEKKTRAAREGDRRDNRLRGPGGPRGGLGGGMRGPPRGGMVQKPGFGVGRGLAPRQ
Technique: RNA Bind-n-Seq
Form: RNA
Sample: in vitro
Concentration: 200 nM
Setting: whole 134-nt RNA, ends assumed
Together with: 150 mM KCl
Relative to: input library
Reading: higher = stronger binding
For `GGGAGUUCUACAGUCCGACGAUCUCAAGUCCUGUGCUACACAUCGUAUGUACCGAAUCGGGUUGGGUUGGGGUUGGGGAAAGUAUUAUGUUACGCCGUUCGGAUCUGCACUUCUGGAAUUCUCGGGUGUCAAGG`, the log2 enrichment was 1.22.
With `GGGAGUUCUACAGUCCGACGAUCCAAGUCCUGUGCUACACAUCGUAUGUACCGAAUCGGAAAGGUUUUUUUGGUUUGGAAAGUAUUAUGUUACGCCGUUCGGAUCUGCACUUCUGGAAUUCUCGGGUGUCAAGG` the log2 enrichment was -1.27.
For `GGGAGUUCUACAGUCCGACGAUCCUCAAGUCCUGUGCUACACAUCGUAUGUACCGAAUCGGGUGGGGUGGGGUGGGGAAAGUAUUAUGUUACGCCGUUCGGAUCUGCACUUCCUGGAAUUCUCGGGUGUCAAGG`, the log2 enrichment was 1.35.
`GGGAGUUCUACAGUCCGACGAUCAAGUCCUGUGCUACACAUCGUAUGUACCGAAUCGGCCCCCGGCCCCCGGCCCCCGGGAAAGUAUUAUGUUACGCCGUUCGGAUCUGCACUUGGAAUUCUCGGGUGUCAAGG` gave a log2 enrichment of -0.381.
`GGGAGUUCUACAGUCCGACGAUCUUGAUGUUAGUAAAUUUGGUGUAAUACGUGGGGCUUCCAUAUUUCAAAGUGGAAGCUUUCUUCUCUGAAGUCGAUAUAUGGUUUUGAAUUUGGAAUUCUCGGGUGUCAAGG` has a log2 enrichment of -0.878.
With `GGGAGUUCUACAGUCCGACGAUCAGUCCUGUGCUACACAUCGUAUGUACCGAAUCGGGGUUUGGGGUUUGGGGUUUGGGGAAAGUAUUAUGUUACGCCGUUCGGAUCUGCACUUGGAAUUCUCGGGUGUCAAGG` the log2 enrichment was 0.966.
With `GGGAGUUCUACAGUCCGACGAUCUCAAGUCCUGUGCUACACAUCGUAUGUACCGAAUCGGAAAGGUUUUUGGAAAGGAAAGUAUUAUGUUACGCCGUUCGGAUCUGCACUUCCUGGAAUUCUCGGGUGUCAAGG` the log2 enrichment was -1.18.
`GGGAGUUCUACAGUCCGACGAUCUCCUGUGCUACACAUCGUAUGUACCGAAUCGGAAAAAAGGGGAAAAAAGGAAAAAAGGGAAAGUAUUAUGUUACGCCGUUCGGAUCUGCAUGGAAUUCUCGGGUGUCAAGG` gave a log2 enrichment of -0.785.
For `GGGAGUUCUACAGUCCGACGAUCACCAUGCAGGUGGGCAUCUUUGGGAAGUGGGGCAAGGGGGGGAUAGGGAGGGGGGUAACACUUUGGGAACAGGUCGUCCCAGGUCGUUUCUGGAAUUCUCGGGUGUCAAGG`, the log2 enrichment was 1.15.

Study 2
Target: POU, POU domain (Salpingoeca helianthica)
Technique: Spec-seq
Form: double-stranded DNA, one strand shown
Sample: in vitro
Concentration: not given
Setting: whole probe, mean of replicates
Relative to: not given
Reading: lower = stronger binding
All sequences stand within: GAGTCGTCTCGTCAGCAC … CCGTAGAGCACTCAGGTC
Construct (chain): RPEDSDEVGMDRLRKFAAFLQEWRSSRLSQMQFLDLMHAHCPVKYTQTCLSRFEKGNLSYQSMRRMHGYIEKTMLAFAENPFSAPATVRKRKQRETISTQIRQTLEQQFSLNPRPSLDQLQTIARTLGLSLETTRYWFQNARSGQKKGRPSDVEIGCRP
`ATGCGACC` — result for “relative binding energy”: 1.43 ln ratio.
`ATGTACAT`: “relative binding energy” 1.29 ln ratio.
`ATCGAAAT`: “relative binding energy” 1.15 ln ratio.
For `CCCCTAAT`, “relative binding energy” read 0.701 ln ratio.
`GCTCTAAT` — result for “relative binding energy”: 0.774 ln ratio.
`ATTAGCAT` — result for “relative binding energy”: 0.3 ln ratio.
`TAAATAAT` — result for “relative binding energy”: -0.678 ln ratio.
`ATGAGGAT` — result for “relative binding energy”: 1.33 ln ratio.
`ACGGTAAT`: “relative binding energy” 0.768 ln ratio.
`CATGTAAT` — result for “relative binding energy”: 0.39 ln ratio.
`AGCCTAAT` — result for “relative binding energy”: 0.893 ln ratio.
`ATGCAATC` — result for “relative binding energy”: 1.4 ln ratio.
`ATGCGGGG`: “relative binding energy” 1.49 ln ratio.
Under “relative binding energy”, `ATGCAACG` is recorded as 1.28 ln ratio.
`CACCTAAT`: “relative binding energy” 0.699 ln ratio.
Under “relative binding energy”, `TCATTAAT` is recorded as -1.13 ln ratio.
`ATGCATAA`: “relative binding energy” 0.479 ln ratio.

Study 3
Target: CCNE1, cyclin fold, Cln2 fusion (human)
Technique: yeast growth competition, sequencing
Sample: yeast
Setting: strong parent motif
Relative to: not given
Reading: higher = stronger binding
Starting sequence: RBL1 docking peptide (human); GSAKRRLFGEDPP
Under “normalised enrichment score”, `G9D` is recorded as 6.79.
`G1S` — result for “normalised enrichment score”: 6.72.
For `G1H`, “normalised enrichment score” read 6.54.
Under “normalised enrichment score”, `K4D` is recorded as 0.000382.
For `G9E`, “normalised enrichment score” read 6.94.
For `G1M`, “normalised enrichment score” read 6.25.
For `L7E`, “normalised enrichment score” read -0.337.
For `G9T`, “normalised enrichment score” read 7.26.
Under “normalised enrichment score”, `L7G` is recorded as 0.0953.
`D11A`: “normalised enrichment score” 4.74.
`E10R`: “normalised enrichment score” 3.29.
`D11N` — result for “normalised enrichment score”: 5.42.
`F8L` — result for “normalised enrichment score”: 0.527.
For `K4A`, “normalised enrichment score” read 3.74.

Mixed results
With `PhoQ, residues 284 288 289 292 302 303 TTSMTC` the fold induction was 9.36 (PhoP, residues 12 14 15 18 19 LWHSL (Escherichia coli, UniProt P23836); Sort-seq, item: YFP reporter; E. coli; PhoQ-PhoP variant library, together with: 10 µM Mg2+; relative to: high Mg2+ state, higher = stronger signaling).

Repeated from above (study 2):
`CATGTAAT` — result for “relative binding energy”: 0.39 ln ratio.
`ACGGTAAT`: “relative binding energy” 0.768 ln ratio.
Under “relative binding energy”, `TCATTAAT` is recorded as -1.13 ln ratio.
